# Assay results gathered from unrelated publications.
# Every numbered part comes from another study and shows a few of its results, in no order.

# Block 1
# Target: Interferon regulatory factor 5, full length, phosphomimetic (IRF5, Homo sapiens, UniProt Q13568-2, residues 1-514, S451D/S453D/S456D/S462D)
# Method: protein-binding microarray
# Molecule type: double-stranded DNA, one strand shown
# Medium: in vitro
# Tested at: 940 nM top
# Notes: 60-bp whole probe
# Together with: salmon DNA 0.4 mg/ml
# Reference: random background probes
# Reading: higher = stronger binding
# All sequences stand within: GCCTAGCAC … GTCTTGATTCGCTTGACGCTGCTG
Strand,fitted relative affinity
TTGGGACTGGGGTATCGGTTAGTGCTA,2.34 z-score
TCAACTTTATGTAGGAAACTGTGCTAG,0.0744 z-score
GACGGTTTCGGGACTGGGTACGTGCTA,6.73 z-score
GACGGTTTCGACTACCGGGACGTGCTA,8.8 z-score
TTAGGTTTCGGGTAACGGTTAGTGCTA,11.4 z-score
TTAGGTTTCATACTGCTTTAGTGCTAG,4.19 z-score
TTCGGTTCCCTTTTCCTTTAGTGCTAG,1.27 z-score
TTAGGTATCGACATTCGGTTAGTGCTA,4.64 z-score
GACGATATCATACTGGAGACGTGCTAG,-0.107 z-score
GACGGTATCGACCATCGGGACGTGCTA,3.61 z-score
GACGAACTCAGTCTCGAGACGTGCTAG,0.684 z-score
TCACTTCTTGAACTCTTACTGTGCTAG,1.1 z-score
TTAGGTTTGGGTTCCGGTTAGTGCTAG,0.97 z-score
TTAGAACTGGGGACTGGATTGGTGCTA,0.0312 z-score
ACACTCTTCTTTTGCTAATTGTGCTAG,1.67 z-score
GCAGTTGTCGTTCAAGGCTGGTGCTAG,-0.467 z-score
TTAGGTCTGCTACTGCTTTAGTGCTAG,-0.266 z-score
TTAGGTATCCTACTGCTTTAGTGCTAG,0.127 z-score
TTAGGTTTCCTAATGCTTTAGTGCTAG,0.567 z-score
TCAGAGCTCTGTCTGGGACTGTGCTAG,-0.439 z-score
GACGAACTGTGTCTCGAGACGTGCTAG,0.21 z-score
GACGGTATCGGGGCTGGGGACGTGCTA,3.4 z-score
GACGGACTGGGTTGCGGGACGTGCTAG,-0.059 z-score
TTAGGATTGGGTATCGGTTAGTGCTAG,4.6 z-score
TCAATTCTCCACTTGTGACTGTGCTAG,0.326 z-score

# Block 2
# Target: RING finger protein unkempt homolog, zinc fingers 1-6, GST-SBP tag (UNK, Homo sapiens, UniProt Q9C0B0, residues 30-357)
# Method: RNA Bind-n-Seq
# Molecule type: RNA
# Medium: in vitro
# Tested at: not given
# Notes: RNA with constant flanks, human and mouse sites, ends assumed
# Reference: input RNA pool
# Reading: higher = stronger binding
# Construct (chain): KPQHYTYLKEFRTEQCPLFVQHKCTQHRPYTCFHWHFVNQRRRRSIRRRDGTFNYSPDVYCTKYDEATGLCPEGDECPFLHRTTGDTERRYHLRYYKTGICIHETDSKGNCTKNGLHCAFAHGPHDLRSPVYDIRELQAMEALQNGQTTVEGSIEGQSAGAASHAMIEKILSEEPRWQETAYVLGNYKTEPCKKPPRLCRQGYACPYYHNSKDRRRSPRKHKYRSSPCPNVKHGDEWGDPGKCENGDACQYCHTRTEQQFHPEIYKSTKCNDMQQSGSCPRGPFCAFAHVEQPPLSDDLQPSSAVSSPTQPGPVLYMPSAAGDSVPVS
Strand,bound/input enrichment [ratio]
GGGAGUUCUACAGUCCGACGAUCAAAAUUUUUGCCUUUGCCAACUCAUUAGUGGAGCUUCUGGCUGUGGGACUAGACACCUUUAACAGAGCCCGCUACAGGCAGUUUGUGAAGCGCAUUGGAUACCUGAUCAGGAUGACCCUUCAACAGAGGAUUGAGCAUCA,0.27
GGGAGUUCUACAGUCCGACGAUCGUGGUGGCCAUAGGAACGCACUCAGGCAGGUGGUUUGUUCUGGAUGCAGAAACCAGAGAUCUAGUUUCUAUCCACACAGACGGGAAUGAACAGCUCUCUGUGAUGCGCUACUCAAUAGAUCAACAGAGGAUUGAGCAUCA,0.219
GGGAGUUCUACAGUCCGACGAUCUCUACAUAUUUUGCCUGGUGCCCAGAUGGUGAGCAUAUCUUAACAGCCACAUGUGCUCCUAGGUUACGUGUUAAUAAUGGGUAUAAGAUCUGGCAUUAUACUGGCUCUCUUUUGCAUAAGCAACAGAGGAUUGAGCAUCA,0.189
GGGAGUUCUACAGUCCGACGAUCGAUGAUGGCAUUUCAGAUGAUGAAAUUGAAGGGAAAAGAACUUUUGACUUGGAAGAGAAGCUCCAAACCAACAAAUAUAAUGCCAAUUUUGUUACUUUUAUGGAGGGAAAAGAUUUUAAUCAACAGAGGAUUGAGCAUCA,0.248
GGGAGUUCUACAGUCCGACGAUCGGAGCAGCUGUGCUGCAGAAAAUGCUUCUGGAAGAUGAGCUGCAGGAUGCAGUGCUGCUCCUUUUUGCAAACAAACAGGAUCUGCCAAACGCUAUGGCCAUCAGUGAGAUGACAGACAAGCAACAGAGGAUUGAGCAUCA,0.0981
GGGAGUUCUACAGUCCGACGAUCAGAGGAACCGUGCAGGCCUUAGCGUGAGUGAUCACUUUAGAUCUUGGGAACCUGGUGGCCAUACUCCUUCAGGUGGAUCAACAGGCACACGACAUGGGAAAGAAGACCAAGAGGACAGCCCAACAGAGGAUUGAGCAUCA,0.259
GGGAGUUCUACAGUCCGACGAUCGCCAUCGCCAUGCACUUCCACCUCUCCACCAGCCAGGUCCCUGCCAAGACAGACUGUGUCAUGUUCUUCGGGCCCGUGGUCCCCGACGGCUACGGUGUCUGCUAUAACCCCAUGGAGGCCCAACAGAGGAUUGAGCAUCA,0.157
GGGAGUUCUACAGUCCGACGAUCCUCCCCGCCGCCGGCUUCCUGUACUGGGUCGGCGCGGGCACCGUGGCCUACCUAGCCCUGCGUAUUUCGUACUCGCUCUUCACGGCCCUCCGGGUCUGGGGAGUGGGGAAUGAGGCGGGGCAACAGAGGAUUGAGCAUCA,0.106
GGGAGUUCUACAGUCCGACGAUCUCGCUUGCUCAGCGUUUGGAAAAACAUGAACUCAUUGAGUUCAGGAGAAUUGCUGCUUAUCUCUUCAAAGGCAACAAUCGCUGGAAACAGAGUGUAGAGCUGUGCAAGAAAGACAGCCUUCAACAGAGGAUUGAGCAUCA,0.151
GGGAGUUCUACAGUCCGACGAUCGUUUAGUAUUGUAGUUAGGCUGUUUGUGUGUAUGCAUGUGUAUGUGUGUAUGAGUGCGUUUGUGUGUGACCAAAACAGUAACUGGCAAACGUAACAACAGGAAAUUGUAGGGCAGGGUCUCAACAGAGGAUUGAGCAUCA,4.2
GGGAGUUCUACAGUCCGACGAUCAUGGCUUCAGAAGAGCUACAGAAAGAUCUAGAAGAGGUAAAGGUGUUGCUGGAAAAGGCUACUAGGAAAAGAGUACGUGAUGCCCUUACAGCUGAAAAAUCCAAGAUUGAGACAGAAAUCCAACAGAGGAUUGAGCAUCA,0.611

# Block 3
# Target: Histone acetyltransferase KAT6A, both winged helices, GST fusion (KAT6A, Homo sapiens, UniProt Q92794, residues 1-181)
# Method: protein binding microarray
# Molecule type: double-stranded DNA, one strand shown
# Medium: in vitro
# Tested at: not given
# Notes: 8-mer, flanks averaged, mean of 2 arrays, mostly near background
# Reference: not given
# Reading: higher = stronger binding
# Residues (chain): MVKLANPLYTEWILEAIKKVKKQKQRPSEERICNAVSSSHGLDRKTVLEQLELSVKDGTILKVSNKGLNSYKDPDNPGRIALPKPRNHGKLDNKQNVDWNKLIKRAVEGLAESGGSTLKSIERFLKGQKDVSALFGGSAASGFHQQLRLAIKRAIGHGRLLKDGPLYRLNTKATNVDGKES
Strand,E-score
GCTCCCCC,-0.143
CGCCTTGA,0.106
AACAAGCT,-0.157
CGGTCTTA,0.201
AGCGTGCC,0.113
GAATACTA,-0.0772
AAAAACTA,0.0343
ATCGTGTG,-0.0954
ATATGGCC,0.0567
TCCGAACA,0.0743
AAGACAGT,-0.0889
CCCTCTAA,-0.155
ACCTTCGT,-0.0623
CGCCTCTA,0.14
AAGCCCCG,0.0998
CAGGAAAA,-0.0683
AAAGCAAT,-0.0759
CTGCGTGA,0.096
AGTCTGAT,-0.144
CCTGTGCG,0.0909
CGACACAG,0.0272
CCCGCATA,0.251

# Block 4
# Target: Ras GTPase-activating protein-binding protein 1, full length (G3BP1, Homo sapiens, UniProt Q13283)
# Chain of UniProt Q13283 (whole entry, looked up): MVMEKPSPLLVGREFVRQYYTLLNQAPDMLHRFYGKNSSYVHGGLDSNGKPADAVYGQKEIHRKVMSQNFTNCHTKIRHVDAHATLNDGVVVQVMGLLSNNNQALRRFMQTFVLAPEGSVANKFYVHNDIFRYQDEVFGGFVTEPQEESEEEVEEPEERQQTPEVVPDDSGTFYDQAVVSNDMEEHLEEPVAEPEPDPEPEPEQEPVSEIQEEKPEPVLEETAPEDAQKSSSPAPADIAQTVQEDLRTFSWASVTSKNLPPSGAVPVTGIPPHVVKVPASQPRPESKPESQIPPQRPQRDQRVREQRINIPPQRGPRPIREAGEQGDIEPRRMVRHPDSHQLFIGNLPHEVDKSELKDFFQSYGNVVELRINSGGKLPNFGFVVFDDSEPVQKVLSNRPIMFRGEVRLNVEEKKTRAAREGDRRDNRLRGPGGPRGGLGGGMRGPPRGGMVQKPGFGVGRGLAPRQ
# Method: RNA Bind-n-Seq
# Molecule type: RNA
# Medium: in vitro
# Tested at: 200 nM
# Notes: whole 134-nt RNA, ends assumed
# Together with: 150 mM LiCl
# Reference: input library
# Reading: higher = stronger binding
# Library: 7-deaza-guanosine replaces G
Strand,log2 enrichment
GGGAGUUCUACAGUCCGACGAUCAAGUCCUGUGCUACACAUCGUAUGUACCGAAUCGGGUUUUGGGUUUUGGGGUUUUGGAAAGUAUUAUGUUACGCCGUUCGGAUCUGCACUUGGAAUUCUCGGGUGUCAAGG,0.194
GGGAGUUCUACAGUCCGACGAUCAGUCCUGUGCUACACAUCGUAUGUACCGAAUCGGGCCCCCGGCCCCCGGGCCCCCGGGAAAGUAUUAUGUUACGCCGUUCGGAUCUGCACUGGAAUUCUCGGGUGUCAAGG,-0.953
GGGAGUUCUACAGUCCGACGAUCGUCCUGUGCUACACAUCGUAUGUACCGAAUCGGGUGGGAAAAAAAGGGUUUUUUUGGGAAAGUAUUAUGUUACGCCGUUCGGAUCUGCACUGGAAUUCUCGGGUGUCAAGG,-0.569
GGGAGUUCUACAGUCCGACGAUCUGUGCUACACAUCGUAUGUACCGAAUCGGGGUUUUUUUGGGGAAAAAAAGGGGAAAAAGGGGAAAGUAUUAUGUUACGCCGUUCGGAUCUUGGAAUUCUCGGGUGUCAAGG,-0.944
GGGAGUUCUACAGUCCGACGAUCCACAGACAACACGCACCCACACAGACACAGAGGGAAGGGGUUGGGAUGGGGACAGGGUGCACAGCAGGGCGGGGUAGGACCCCAGCCCCUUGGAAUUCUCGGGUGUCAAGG,-0.179
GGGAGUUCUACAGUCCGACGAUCUGGCCCUGGUGGCAUGCGGGGAGGAAGAGGUGGCCUCAUGGAUGGUGGUGGUCCCGGUGGAAUGUUCAGAGGUGGCCGUGGUGGAGACAGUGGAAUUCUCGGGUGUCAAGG,0.289
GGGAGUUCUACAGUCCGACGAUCGUCCUGUGCUACACAUCGUAUGUACCGAAUCAAACCCCCCCAAACCCAAACCCCCAAAAAAGUAUUAUGUUACGCCGUUCGGAUCUGCACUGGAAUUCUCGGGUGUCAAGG,-0.0955
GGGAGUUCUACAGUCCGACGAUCUGGCCCUGGUGGCAUGCGGGGAGGAGGAGGUGGCCUCAUGGAUCGUGGUGGUCCCGGUGGAAUGUUCAGAGGUGGCCGUGGUGGAGACAGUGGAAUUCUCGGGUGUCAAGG,0.465
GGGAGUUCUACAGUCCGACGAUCCCUGUGCUACACAUCGUAUGUACCGAAUCGGGGAAAGGGGAAAAAGGGGAAAAAAAGGGGAAAGUAUUAUGUUACGCCGUUCGGAUCUGCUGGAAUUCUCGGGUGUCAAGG,0.894
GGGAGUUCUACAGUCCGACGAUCCACAGACAACACGCACCCACACAGACACAGAGGGAAGGGGUUGGGAUGGGAAAAGGGUGCACAGCAGGGCGGGGUAGGACCCCAGCCCCUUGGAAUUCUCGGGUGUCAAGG,0.194
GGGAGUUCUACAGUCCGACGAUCCAAGUCCUGUGCUACACAUCGUAUGUACCGAAUCGGGGCCCGGGGCCCGGCCCGGGAAAGUAUUAUGUUACGCCGUUCGGAUCUGCACUUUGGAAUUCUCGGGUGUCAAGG,-1.02

# Some of these lines once more (block 4):
Strand,log2 enrichment
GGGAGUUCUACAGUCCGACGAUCGUCCUGUGCUACACAUCGUAUGUACCGAAUCGGGUGGGAAAAAAAGGGUUUUUUUGGGAAAGUAUUAUGUUACGCCGUUCGGAUCUGCACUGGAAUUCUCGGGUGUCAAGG,-0.569
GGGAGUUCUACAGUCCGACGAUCUGUGCUACACAUCGUAUGUACCGAAUCGGGGUUUUUUUGGGGAAAAAAAGGGGAAAAAGGGGAAAGUAUUAUGUUACGCCGUUCGGAUCUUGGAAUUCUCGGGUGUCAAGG,-0.944
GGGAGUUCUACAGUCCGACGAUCCACAGACAACACGCACCCACACAGACACAGAGGGAAGGGGUUGGGAUGGGGACAGGGUGCACAGCAGGGCGGGGUAGGACCCCAGCCCCUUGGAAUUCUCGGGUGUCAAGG,-0.179
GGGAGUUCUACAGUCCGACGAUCUGGCCCUGGUGGCAUGCGGGGAGGAAGAGGUGGCCUCAUGGAUGGUGGUGGUCCCGGUGGAAUGUUCAGAGGUGGCCGUGGUGGAGACAGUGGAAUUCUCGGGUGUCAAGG,0.289
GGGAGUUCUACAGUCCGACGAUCGUCCUGUGCUACACAUCGUAUGUACCGAAUCAAACCCCCCCAAACCCAAACCCCCAAAAAAGUAUUAUGUUACGCCGUUCGGAUCUGCACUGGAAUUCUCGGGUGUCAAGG,-0.0955
